Measurements of several laboratories.
“And” joins repeats or separate records; there may be more than shown.
Target: Prostaglandin G/H synthase 1 (PTGS1, Homo sapiens, UniProt P23219)

`C[C@H](NCc1ccc(-c2ccc(C(F)(F)F)cc2)cc1)C(N)=O` gave an inhibition of 15% (enzyme activity, SafetyScreen panel; 1 µM, with: 100 µM arachidonic acid).
`C/C(=N\OCCCN1CCCCC1)c1ccc(C(F)(F)F)cc1` gave an inhibition of 1.92% (antagonist, FI; 10 µM).
For `Cc1ccc2c(n1)c(-c1cccc(S(C)(=O)=O)c1)c(C)n2C/C(F)=C/CN`, the inhibition was -11% (cell-free assay; 10 µM).
`CCN(CC)CCOc1ccc(-c2nnn(Cc3ccc(OC)cc3)c2N)cc1` has an inhibition of -9% (enzyme activity; 10 µM).
`CCc1nnc(-c2c(OC)cc(-c3cnc4cc(-c5cnn(C)c5)ccn34)cc2OC)o1` has a remaining binding of 148% (radioligand binding; 10 µM, SafetyScreen44 mean; lower = stronger displacement).
The inhibition of `Cc1cc(Nc2nc(C[C@@]3(C(=O)O)CCN(Cc4cccc(Cl)c4F)[C@H](C)C3)cc(C)c2F)[nH]n1` is reported as -8.38% (enzyme activity, inhibitor; 10 µM).
For `CS(C)(=O)=Nc1ccc(-c2ccc(-c3nc4cc(O[C@@H]5CO[C@H]6[C@@H]5OC[C@H]6O)[nH]c4cc3F)cc2)cc1`, the inhibition was 12% (enzyme activity, inhibitor; 10 µM).
With `Cc1cc(-c2ccc3ccccc3c2)nnc1NCCN1CCN(C)CC1` the inhibition was 0% (enzyme activity; 10000 nM).
For `COc1ccc(F)cc1S(=O)(=O)Nc1cnc2c(c1)C(=O)NCCO2`, the inhibition was 13% (enzyme activity, inhibitor; 10 µM).
`O=C(O)c1ccc(-c2nc(-c3ccccc3Cl)c3sccn23)cc1` has a specific binding of 121% and 124% (radioligand binding, safety screen panel; 10 µM; reference: control).

A few entries again:
For `COc1ccc(F)cc1S(=O)(=O)Nc1cnc2c(c1)C(=O)NCCO2`, the inhibition was 13% (enzyme activity, inhibitor; 10 µM).
`O=C(O)c1ccc(-c2nc(-c3ccccc3Cl)c3sccn23)cc1` has a specific binding of 121% and 124% (radioligand binding, safety screen panel; 10 µM; reference: control).
